Assay results gathered from unrelated publications.
Compare with care: the assays were run in different laboratories.
Sequence of UniProt Q99549 (whole entry, looked up): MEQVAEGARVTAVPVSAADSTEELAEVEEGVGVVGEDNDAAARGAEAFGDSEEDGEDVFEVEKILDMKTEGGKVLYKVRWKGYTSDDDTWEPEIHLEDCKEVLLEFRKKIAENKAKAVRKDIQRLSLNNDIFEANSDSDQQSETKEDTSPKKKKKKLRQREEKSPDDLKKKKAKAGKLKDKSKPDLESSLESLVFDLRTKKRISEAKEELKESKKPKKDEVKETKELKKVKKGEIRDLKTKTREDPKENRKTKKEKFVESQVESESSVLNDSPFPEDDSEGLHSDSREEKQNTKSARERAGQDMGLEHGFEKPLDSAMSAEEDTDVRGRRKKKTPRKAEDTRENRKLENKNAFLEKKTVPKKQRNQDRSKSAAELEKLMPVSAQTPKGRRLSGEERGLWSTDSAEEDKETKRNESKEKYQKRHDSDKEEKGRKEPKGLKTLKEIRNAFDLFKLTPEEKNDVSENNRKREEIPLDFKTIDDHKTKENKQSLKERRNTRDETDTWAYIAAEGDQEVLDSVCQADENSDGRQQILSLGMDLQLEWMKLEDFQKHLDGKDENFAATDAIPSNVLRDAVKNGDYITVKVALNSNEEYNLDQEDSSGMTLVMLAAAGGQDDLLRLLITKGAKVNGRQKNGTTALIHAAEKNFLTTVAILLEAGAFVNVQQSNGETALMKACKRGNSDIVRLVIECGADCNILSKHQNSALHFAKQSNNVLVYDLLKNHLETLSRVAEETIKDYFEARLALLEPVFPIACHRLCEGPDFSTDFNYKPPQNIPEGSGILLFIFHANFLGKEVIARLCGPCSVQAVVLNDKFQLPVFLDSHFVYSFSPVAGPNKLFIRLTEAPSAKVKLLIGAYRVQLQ
Sequence of UniProt P20700 (whole entry, looked up): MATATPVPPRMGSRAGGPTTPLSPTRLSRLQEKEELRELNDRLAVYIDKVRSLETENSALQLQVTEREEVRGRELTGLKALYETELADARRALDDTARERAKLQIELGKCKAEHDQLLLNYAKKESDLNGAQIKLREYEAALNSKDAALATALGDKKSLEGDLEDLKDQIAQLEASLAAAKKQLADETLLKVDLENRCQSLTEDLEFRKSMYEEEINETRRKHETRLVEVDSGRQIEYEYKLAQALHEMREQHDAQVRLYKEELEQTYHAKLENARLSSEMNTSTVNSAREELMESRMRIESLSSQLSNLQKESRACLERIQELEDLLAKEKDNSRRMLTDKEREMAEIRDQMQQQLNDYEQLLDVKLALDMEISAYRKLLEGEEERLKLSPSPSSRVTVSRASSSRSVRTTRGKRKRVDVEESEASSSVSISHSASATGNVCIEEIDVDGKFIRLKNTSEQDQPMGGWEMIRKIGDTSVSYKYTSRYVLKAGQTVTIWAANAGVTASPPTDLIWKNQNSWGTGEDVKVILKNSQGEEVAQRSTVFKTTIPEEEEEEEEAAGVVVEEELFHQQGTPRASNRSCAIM
Sequence of UniProt P00558 (whole entry, looked up): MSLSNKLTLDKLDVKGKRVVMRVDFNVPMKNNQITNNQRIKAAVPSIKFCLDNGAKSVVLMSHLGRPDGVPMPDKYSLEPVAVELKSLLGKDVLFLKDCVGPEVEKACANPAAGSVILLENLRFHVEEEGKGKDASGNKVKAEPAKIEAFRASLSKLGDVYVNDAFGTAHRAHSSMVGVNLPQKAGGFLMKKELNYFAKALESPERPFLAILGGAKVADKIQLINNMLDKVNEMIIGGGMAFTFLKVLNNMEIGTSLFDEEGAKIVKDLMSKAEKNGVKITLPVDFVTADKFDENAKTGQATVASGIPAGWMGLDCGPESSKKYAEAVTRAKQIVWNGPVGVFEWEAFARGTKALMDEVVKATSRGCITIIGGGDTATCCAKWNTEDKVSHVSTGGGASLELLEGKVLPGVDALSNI
Sequence of UniProt Q9SXB6 (whole entry, looked up): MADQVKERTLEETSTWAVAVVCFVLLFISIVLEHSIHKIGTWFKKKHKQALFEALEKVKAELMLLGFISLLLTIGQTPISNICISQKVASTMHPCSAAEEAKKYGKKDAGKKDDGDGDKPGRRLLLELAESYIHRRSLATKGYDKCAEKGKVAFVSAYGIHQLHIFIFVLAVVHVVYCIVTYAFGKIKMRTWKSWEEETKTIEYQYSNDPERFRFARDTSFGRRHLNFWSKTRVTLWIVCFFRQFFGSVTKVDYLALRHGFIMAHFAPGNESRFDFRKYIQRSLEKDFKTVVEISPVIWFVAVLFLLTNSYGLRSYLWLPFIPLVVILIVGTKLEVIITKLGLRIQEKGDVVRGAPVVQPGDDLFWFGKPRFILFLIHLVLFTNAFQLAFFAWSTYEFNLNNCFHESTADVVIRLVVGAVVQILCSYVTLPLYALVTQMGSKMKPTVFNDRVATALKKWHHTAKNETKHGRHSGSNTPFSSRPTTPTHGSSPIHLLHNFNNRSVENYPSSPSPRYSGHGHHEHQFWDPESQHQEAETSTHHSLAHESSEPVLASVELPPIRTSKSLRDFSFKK
Sequence of UniProt Q14674 (whole entry, looked up): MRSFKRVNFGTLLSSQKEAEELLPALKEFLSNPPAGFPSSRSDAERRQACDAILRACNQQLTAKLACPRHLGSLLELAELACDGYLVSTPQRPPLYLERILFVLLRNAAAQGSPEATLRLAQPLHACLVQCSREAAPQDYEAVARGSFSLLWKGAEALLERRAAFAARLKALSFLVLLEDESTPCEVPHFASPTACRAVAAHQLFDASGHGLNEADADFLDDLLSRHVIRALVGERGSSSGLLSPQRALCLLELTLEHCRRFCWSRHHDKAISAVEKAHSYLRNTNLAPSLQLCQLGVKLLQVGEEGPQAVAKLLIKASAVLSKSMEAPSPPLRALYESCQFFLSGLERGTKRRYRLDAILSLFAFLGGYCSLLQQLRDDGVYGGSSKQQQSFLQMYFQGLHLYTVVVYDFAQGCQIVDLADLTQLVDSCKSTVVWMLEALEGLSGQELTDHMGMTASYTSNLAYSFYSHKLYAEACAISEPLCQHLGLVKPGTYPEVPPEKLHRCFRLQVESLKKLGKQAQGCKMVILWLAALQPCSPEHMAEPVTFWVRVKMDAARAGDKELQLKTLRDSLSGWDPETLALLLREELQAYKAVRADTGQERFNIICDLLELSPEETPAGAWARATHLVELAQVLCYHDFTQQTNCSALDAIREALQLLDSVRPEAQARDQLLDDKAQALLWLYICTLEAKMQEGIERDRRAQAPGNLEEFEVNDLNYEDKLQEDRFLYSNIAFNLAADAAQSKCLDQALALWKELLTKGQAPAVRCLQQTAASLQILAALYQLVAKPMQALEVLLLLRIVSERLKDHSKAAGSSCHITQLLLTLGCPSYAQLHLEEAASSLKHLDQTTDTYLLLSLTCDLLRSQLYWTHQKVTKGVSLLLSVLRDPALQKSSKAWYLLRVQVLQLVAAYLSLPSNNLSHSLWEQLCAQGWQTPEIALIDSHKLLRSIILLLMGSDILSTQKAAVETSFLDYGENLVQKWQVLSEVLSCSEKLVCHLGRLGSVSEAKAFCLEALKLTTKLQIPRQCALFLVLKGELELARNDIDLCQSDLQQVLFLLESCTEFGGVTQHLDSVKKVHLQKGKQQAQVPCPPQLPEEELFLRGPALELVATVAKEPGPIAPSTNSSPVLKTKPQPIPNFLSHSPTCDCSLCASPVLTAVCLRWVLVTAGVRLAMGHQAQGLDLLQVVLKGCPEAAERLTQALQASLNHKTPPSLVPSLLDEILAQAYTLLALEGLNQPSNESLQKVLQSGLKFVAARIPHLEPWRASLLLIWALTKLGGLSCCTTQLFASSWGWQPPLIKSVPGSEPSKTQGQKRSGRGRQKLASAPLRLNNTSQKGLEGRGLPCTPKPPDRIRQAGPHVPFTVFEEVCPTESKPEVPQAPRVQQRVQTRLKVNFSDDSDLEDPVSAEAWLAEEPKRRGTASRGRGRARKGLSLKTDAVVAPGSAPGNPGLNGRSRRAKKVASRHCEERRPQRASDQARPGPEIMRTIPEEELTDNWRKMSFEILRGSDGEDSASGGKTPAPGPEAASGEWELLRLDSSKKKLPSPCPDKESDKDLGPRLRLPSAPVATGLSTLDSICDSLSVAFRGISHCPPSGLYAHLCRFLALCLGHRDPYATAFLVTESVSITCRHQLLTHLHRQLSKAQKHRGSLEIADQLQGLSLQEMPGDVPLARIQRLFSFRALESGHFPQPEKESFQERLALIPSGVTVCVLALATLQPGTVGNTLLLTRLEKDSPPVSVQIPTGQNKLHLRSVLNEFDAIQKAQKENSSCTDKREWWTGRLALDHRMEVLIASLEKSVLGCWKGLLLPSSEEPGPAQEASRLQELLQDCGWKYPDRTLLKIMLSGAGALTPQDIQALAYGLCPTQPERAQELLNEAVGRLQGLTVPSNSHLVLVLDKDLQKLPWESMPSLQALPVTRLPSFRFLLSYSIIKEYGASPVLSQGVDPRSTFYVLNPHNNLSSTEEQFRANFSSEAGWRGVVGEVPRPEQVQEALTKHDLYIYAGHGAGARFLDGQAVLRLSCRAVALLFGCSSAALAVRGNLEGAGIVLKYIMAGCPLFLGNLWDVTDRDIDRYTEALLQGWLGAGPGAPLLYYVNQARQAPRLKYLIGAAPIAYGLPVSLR
Sequence of UniProt P32241 (whole entry, looked up): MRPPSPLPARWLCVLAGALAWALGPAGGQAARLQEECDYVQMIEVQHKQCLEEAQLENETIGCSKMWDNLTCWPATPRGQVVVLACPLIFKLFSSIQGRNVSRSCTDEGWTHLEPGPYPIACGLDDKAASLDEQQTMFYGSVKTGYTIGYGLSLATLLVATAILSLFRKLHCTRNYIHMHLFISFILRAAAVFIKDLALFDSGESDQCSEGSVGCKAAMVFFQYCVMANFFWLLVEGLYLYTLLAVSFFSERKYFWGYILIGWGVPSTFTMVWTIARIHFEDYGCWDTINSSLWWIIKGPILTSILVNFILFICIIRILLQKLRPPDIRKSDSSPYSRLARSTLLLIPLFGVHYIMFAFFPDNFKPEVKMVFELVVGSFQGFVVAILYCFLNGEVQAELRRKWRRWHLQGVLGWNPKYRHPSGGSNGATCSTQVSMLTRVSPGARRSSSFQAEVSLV

`PKLPPKTYKREH (SOS1 proline-rich peptide, 1303-1314)` — result for “chemical shift perturbation”: 0.46 ppm (GRB2 156-215 (Homo sapiens, UniProt P62993); NMR titration; peptide).
`SIRPA IgV domain-Fc fusion, bivalent (Homo sapiens)` has an EC50 of 9.32 nM (CD47 (Homo sapiens, UniProt Q08722); flow cytometry; Raji; 30 min, apparent, bivalent).
`CAM2 (Arabidopsis thaliana, UniProt P0DH97)` gave a β-galactosidase activity of 0.18 U/mg (MLO2 439-573 (Arabidopsis thaliana, UniProt Q9SXB6); LacZ reporter, split-ubiquitin yeast two-hybrid; 37 °C, added: oNPG; higher = stronger interaction).
`BIRC5 (Homo sapiens, UniProt O15392)` — result for cross-linked residues: “K112 to K202” (FGA (Homo sapiens, UniProt P02671); cross-linking MS; added: DSSO).
For `SEKHFRETEV`, “normalised SPR binding response” read 7.8 normalised RU (human MAGI1-3/6 PDZ construct (MBP fusion); surface plasmon resonance; peptide; concentration not given; higher = stronger binding).
Under cross-linked residues, `ALB (Homo sapiens, UniProt P02768)` is recorded as “K375 to K240” (LACTB (Homo sapiens, UniProt P83111); cross-linking MS; added: DSSO).
The binding intensity of `GSGAGKETRV` is reported as 0.506 (human MAGI1-3/6 PDZ construct (MBP fusion); automated holdup; peptide, crude extract; concentration not given, corrected by standard peak, unit not given; relative to: biotin control resin, higher = stronger binding).
`SUPT4H1/SUPT5H, Cy3-labelled Spy tag (Homo sapiens) (sequence not shown)` gave a residence time of 182 s (RNA polymerase II elongation complex, P-TEFb phosphorylated (Sus scrofa); single-molecule fluorescence colocalisation; phosphorylated).
`FGA (Homo sapiens, UniProt P02671)`: cross-linked residues “K238 to K58” (CENPH (Homo sapiens, UniProt Q9H3R5); cross-linking MS; added: DSSO).
For `LMNB1 (Homo sapiens, UniProt P20700)`, “PLA signal intensity” read 2.5 fold (ESPL1 (Homo sapiens, UniProt Q14674); proximity ligation; SV40 fibroblasts; overexpressed untagged WT lamin B1; relative to: control cells, higher = stronger signal).
`ADCYAP1 PACAP (Homo sapiens)` gave a pA2 of 933 nM (VIPR1 (Homo sapiens, UniProt P32241); cAMP accumulation, antagonist; Cos7; VPAC1, added: VIP).
With `colistin` the MIC was 4 µg/mL (Enterobacter cloacae; broth microdilution; clinical isolate RKI-No_243/15).
`PGK1 (Homo sapiens, UniProt P00558)` — result for cross-linked residues: “K48 to K356” (MPHOSPH8 (Homo sapiens, UniProt Q99549); cross-linking MS; cells; added: iqPIR).
`ADSL (Homo sapiens, UniProt P30566)` — result for cross-linked residues: “K224 to D75” (Hemoglobin subunit alpha (Homo sapiens, UniProt P69905); cross-linking MS; added: DSSO or DMTMM).
With `PDE4D3/GFP (Homo sapiens)` the relative binding was 8.5 (AKAP6 (Homo sapiens, UniProt Q13023-1); co-IP; HEK293; wild type, added: forskolin and IBMX; relative to: normalised to mAKAP precipitated, higher = more PDE4D3 bound).

For quick reference, copied from above:
`SIRPA IgV domain-Fc fusion, bivalent (Homo sapiens)` has an EC50 of 9.32 nM (CD47 (Homo sapiens, UniProt Q08722); flow cytometry; Raji; 30 min, apparent, bivalent).
